# Results collected from several papers.
# Each numbered part is a random draw from the data of one study; scales do not carry over between parts.

# Set 1
# Target: Fragile X messenger ribonucleoprotein 1, C-terminal low-complexity region (Fmr1, Mus musculus, UniProt P35922)
# Technique: RNA Bind-n-Seq
# Molecule type: RNA
# Sample: in vitro
# Concentration: 200 nM
# Setting: whole 134-nt RNA, ends assumed
# Added: 150 mM LiCl
# Relative to: input library
# Direction: higher = stronger binding
# All molecules: 7-deaza-guanosine replaces G
# All sequences stand within: GGGAGUUCUACAGUCCGACGAUC … UGGAAUUCUCGGGUGUCAAGG
Sequence,log2 enrichment
ACCAUGGAGGUGGGCAUCUUUGGGAAGUGGGGCAAGGGGGGGAUAGGGAGGGGGGUAACACUUUGGGAACAGGUGGUCCCAGGUCGUUUC,1.25
GUCCUGUGCUACACAUCGUAUGUACCGAAUCGGUUUUUUGGGUUUUUUGGUUUUUUGGGAAAGUAUUAUGUUACGCCGUUCGGAUCUGCA,-1.85
GUCCUGUGCUACACAUCGUAUGUACCGAAUCGGGUUUUUGGGUUUUUUUGGGAAAGGGAAAGUAUUAUGUUACGCCGUUCGGAUCUGCAC,-0.715
UGUGCUACACAUCGUAUGUACCGAAUCGGGUUUUUUUGGGGUUUUUUUGGGGUUUUUUUGGGGAAAGUAUUAUGUUACGCCGUUCGGAUC,2.19
AGUCCUGUGCUACACAUCGUAUGUACCGAAUCGGGGUUUUUUUGGGGUGGGGUGGGGAAAGUAUUAUGUUACGCCGUUCGGAUCUGCACU,-0.403
UGAAGGCGCGGCCCUUCCCCGACGGCCUGGCCGAGGACAUCGAUAAAGGCGAGGUGUCCGCCCGUCAGGAGCUCAAGCAGCGGGCGCGCU,-0.672
UGGCCCUGGUGGCAUGCGGGGAGGAAGAGGCGGCCUCAUGGAUCGUGGUGGUCCCGGUGGAAUGUUCAGAGGUGGCCGUGGUGGAGACAG,-0.349
CAAGUCCUGUGCUACACAUCGUAUGUACCGAAUCGGGGAGGGGUUUGGGGUGGGGAAAGUAUUAUGUUACGCCGUUCGGAUCUGCACUUC,0.324

# Set 2
# Target: RNA binding protein fox-1 homolog 2, RRM domain, GST-SBP tag (RBFOX2, Homo sapiens, UniProt O43251-10, residues 100-194)
# Technique: RNA Bind-n-Seq
# Molecule type: RNA
# Sample: in vitro
# Concentration: 365 nM
# Setting: natural RNA segment, single round, ends assumed
# Relative to: no-protein control
# Direction: higher = stronger binding
# All sequences stand within: GGGAGUUCUACAGUCCGACGAUC … UGGAAUUCUCGGGUGCCAA
# Construct (chain): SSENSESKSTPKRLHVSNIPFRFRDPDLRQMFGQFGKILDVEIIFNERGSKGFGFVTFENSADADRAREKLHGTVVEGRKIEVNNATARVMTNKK
Sequence,RBNS enrichment (R)
GAUAGUUAAAAUUUCACUGCCAGGUUUCUUCUGCCCACCCAAAAGAUCCAGUCUAUAAUUACAGAUUUUGUAAGAAAAAAUAUAUAUACACAUAACUGACUGGAAAGAAU,0.863
UAUCAAUCAGAAUUGGAGUUUUUAACAGUGGUCAUUAUCAAAGCUGUGUUAUUUUCCACAGAAUAUAGAAUAUAUAUUUUUUUCGUGUGUGUUUUUGUUAACUACCCUAC,0.522
AAGCCCCCAGUACCGGUCAGUUGAUUCUGUGGGCUGUAAACUGUGAAGUAUGGGUUCUCUCAGAGGAAAGGUUAUGAAAUUCUGUUGUGUGCAUAGUAAGACUGCCUGGC,1.06
AUCUUUUGGGUUUGAAUGAAGGUUUUACAUAAGAAAUUAUUAAAAACAAGGGGGGUGGGUAAUAAAUGUAUAUAACAUUAAAUAAUGUAACGUAGGUGUAGAUUCCCAAA,1.97
ACCUGCGGGGAAGAAACUCAGACUUUCUAUUUUUGAUAUUUUGUGCAUUAAUACAUUACAAACAUGAAGAUGUUUGUAAAGUUUUGUUUUAGUCAUUUUCUUUGCAGUCA,0.618
GAAGAAGCACCGUGCGCAUACAGCCCACCGCAGAAGCAGCAGGUGCAGGGUGCGCGAAUGCGCAAGCGCCGGGCAGAGUCCCGUGCGGCUUCUGCUGUGGGACGUGGGCC,1.07
GCAAAUUUUGUGAAAACAUAACAAUUUGAAGCUUCUGUAAUUUUGAGCACUGCUCUAACAACAAGCAUAAUAUAAAAUUAGUUAGAUUUUGCAAGUCUACAAAUGAGCUC,0.311
UAUUGGUGAGUUGCCAAAGAAGCAAUACAGCAUAUCUGCUUUUGCCUUCUGUUGUUUAUCUUACCUGCAGAUAUUAAGAAUGUAUGCAUUAUGUAAAAUGCUCAAUUAUA,0.346

# Set 3
# Target: Interferon regulatory factor 3, full length, phosphomimetic (IRF3, Homo sapiens, UniProt Q14653, residues 1-427, S386D/S396D/S398D/S402D/T404D/S405D)
# Chain of UniProt Q14653 (whole entry, unmodified, looked up): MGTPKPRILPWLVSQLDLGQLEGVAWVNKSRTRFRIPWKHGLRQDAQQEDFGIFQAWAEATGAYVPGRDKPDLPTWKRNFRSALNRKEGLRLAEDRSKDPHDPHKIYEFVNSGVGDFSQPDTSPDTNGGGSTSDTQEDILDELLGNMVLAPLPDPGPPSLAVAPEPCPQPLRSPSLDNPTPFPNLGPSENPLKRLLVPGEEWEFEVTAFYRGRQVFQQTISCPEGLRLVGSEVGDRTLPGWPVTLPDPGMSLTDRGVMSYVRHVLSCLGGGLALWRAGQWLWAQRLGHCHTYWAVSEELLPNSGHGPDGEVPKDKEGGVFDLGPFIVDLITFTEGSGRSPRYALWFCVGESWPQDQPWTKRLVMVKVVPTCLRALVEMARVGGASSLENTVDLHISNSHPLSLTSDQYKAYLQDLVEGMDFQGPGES
# Technique: protein-binding microarray
# Molecule type: double-stranded DNA, one strand shown
# Sample: in vitro
# Concentration: 2540 nM top
# Setting: 60-bp whole probe
# Added: salmon DNA 0.4 mg/ml
# Relative to: random background probes
# Direction: higher = stronger binding
# All sequences stand within: GCCTAGCAC … GTCTTGATTCGCTTGACGCTGCTG
Sequence,fitted relative affinity [z-score]
TTAGATATCAGACTGGACTAGTGCTAG,0.0145
TTAGGACTGCTACTGCTTTGGTGCTAG,-0.649
TTAAATATCGGGTATCGATTAGTGCTA,0.45
TTAGATATAAGTCTCGATTAGTGCTAG,-0.101
TTAGGTCACCTTATCCTTTAGTGCTAG,1.42
TTAGGACTGGACTATCGGATAGTGCTA,-0.166
TTATATTTTAATCACATATAGTGCTAG,0.908
GACGGTTTCGGGTTTTGGGACGTGCTA,4.6
GACGGTTCCGACTTTCGGGACGTGCTA,2.64
GGAAGCTTCTTTTTTATTCTGTGCTAG,0.765
TACGGTTTCGGGTATCGGGACGTGCTA,4.26
TTAGATATCAGACTGTATTAGTGCTAG,0.346
TTAGATTTCTGTTCCGATTAGTGCTAG,4.12
AAGTTTCTCCTTTCGGAATAGTGCTAG,4.43
TCATTTATGTACTCTCTCACTGTGCTA,0.96
TTAGCACTGGGGTATCGGTTAGTGCTA,-0.0526
GACGATTTCGGTCTCGAGACGTGCTAG,4.54
TTAGGTATCGGGACTGTGTTAGTGCTA,1.27
TCACCTTTGTTTTTTTCACTGTGCTAG,1.07

# Set 4
# Target: Histone acetyltransferase KAT6A, both winged helices, GST fusion (KAT6A, Homo sapiens, UniProt Q92794, residues 1-181)
# Technique: protein binding microarray
# Molecule type: double-stranded DNA, one strand shown
# Sample: in vitro
# Concentration: not given
# Setting: 8-mer, flanks averaged, mean of 2 arrays, mostly near background
# Relative to: not given
# Direction: higher = stronger binding
# Residues (chain): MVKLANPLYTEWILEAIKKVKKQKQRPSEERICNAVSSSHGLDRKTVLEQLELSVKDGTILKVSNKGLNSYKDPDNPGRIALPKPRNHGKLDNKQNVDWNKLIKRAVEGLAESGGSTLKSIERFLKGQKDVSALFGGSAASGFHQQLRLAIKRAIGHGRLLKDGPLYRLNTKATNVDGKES
Sequence,E-score
ACTCGTCA,-0.0277
GGCTCGTA,0.00263
ACAAGAGG,-0.0897
AGTAAAAT,-0.0222
GGATACAC,-0.019
AGAGGGAA,-0.239
ATTTGCGG,0.157
GAAGGCGC,0.257
AAACGCCG,0.285
ACATATGA,-0.14
TCCTTACA,-0.018
AATACCAT,-0.05
GAAACATC,0.0453
CGCCAACA,0.157
GCGGTCTA,0.234
GGAGAGCC,0.0775
CGAGGACA,-0.0416
CATGGATC,-0.0379
ATGCGTCC,0.192
ACTAAATG,-0.117
ACGTCCTG,-0.0948
GAGACAAA,-0.187
GTAACACA,0.0416
AATTCACC,-0.107
GGTATAAC,-0.0258

# Some of these lines once more (set 4):
Sequence,E-score
ATTTGCGG,0.157
GGAGAGCC,0.0775
GCGGTCTA,0.234
GAGACAAA,-0.187
ACTCGTCA,-0.0277
AATACCAT,-0.05
CATGGATC,-0.0379
